# Published values collected from several papers.
# Lines come from different studies, so protocols differ. ± gives the spread as reported.
Structure (SMILES),organism,assay,test system,setting,how to read,endpoint,result
CC1(C)SC2C(NC(=O)C(NC(=O)C3=C(O)C(Cc4ccc([N+](=O)[O-])cc4)NC3=O)c3ccccc3)C(=O)N2C1C(=O)O (centres unmarked),Escherichia coli,broth microdilution,"ATCC 35218, low-level TEM-1",with: clavulanic acid 6 µg/mL,,MIC,50 µg/mL
Nc1ncnc2c1ncn2[C@@H]1O[C@@H]2COP(=O)(O)O[C@H]3[C@@H](O)[C@H](n4cnc5c(=O)[nH]cnc54)O[C@@H]3COP(=O)(O)O[C@H]2[C@H]1O,Zika virus,"downregulated Reactome pathway, RNA sequencing, measured: Collagen chain trimerization (R-HSA-8948216)",HFF-1,,relative to: ZIKV-infected untreated,fold enrichment,12.9
CC(=O)N[C@H]1[C@@H](O[C@@H]2O[C@H](C[C@@H](O)[C@H]3O[C@@H](n4ccc(=O)[nH]c4=O)[C@H](O)[C@@H]3O)[C@H](O)[C@H](O)[C@H]2NC(=O)/C=C/CCCCCCCCCC(C)C)O[C@H](CO)[C@@H](O)[C@@H]1O,Saccharomyces cerevisiae,alamar blue,BY4742,,,MIC50,1.2 ± 0.033 µg/mL
C[C@@H](O[C@H]1OCCN(Cc2n[nH]c(=O)[nH]2)[C@H]1c1ccc(F)cc1)c1cc(C(F)(F)F)cc(C(F)(F)F)c1,Human immunodeficiency virus 1,viral replication,"PBMC, CRF01_AE isolate from Thailand, X4, SI",,,IC50,4.79 µM
Cn1cc2c3c1C(=O)C(N)=CC3=NCC2,Saccharomyces cerevisiae,"cell growth, liquid culture",BY4741,"100 µM, 24 h",,inhibition,3.2%
Nc1ncnc2c([C@@H]3N[C@H](CO)[C@@H](O)[C@H]3O)c[nH]c12,Rhinovirus A,viral replication,HRV2 HGP,29.6 µM,,inhibition,77.5%
COc1ccccc1Cc1cc2c(ccc3ccccc32)oc1=O,Schistosoma mansoni,microscopic viability scoring,newly transformed schistosomula,"10 µM, 72 h, prescreen",,viability reduction,25%
CC[C@@H]1/C=C(\C)C[C@H](C)C[C@H](OC)[C@H]2O[C@@](O)(C(=O)C(=O)N3CCCC[C@H]3C(=O)O[C@H](/C(C)=C/[C@@H]3CC[C@@H](O)[C@H](OC)C3)[C@H](C)[C@@H](O)CC1=O)[C@H](C)C[C@@H]2OC,Bovine alphaherpesvirus 1,viral replication,MDBK,,,IC50,0.33 µM
C[C@@H]1C[C@H](O)[C@]2(O)O[C@@H]3C[C@@]4(C=O)[C@@H](CC[C@@H]5[C@@H]4CC[C@]4(C)[C@@H](C6=CC(=O)OC6)CC[C@]54O)C[C@H]3O[C@@H]2O1,Schistosoma mansoni,microscopic viability score,adult worms,72 h,,IC50,0.37 µM
O=c1ccn([C@@H]2O[C@H](CO)[C@@H](O)[C@H]2O)c(=S)[nH]1,Dengue virus,viral replication,"BHK-21, DENV4",,,EC50,1.8 µM
N=C(N)NCCC[C@H](NC(=O)CN)C(=O)N[C@@H](Cc1c[nH]c2ccccc12)C(=O)N[C@@H](CCCNC(=N)N)C(=O)N[C@@H](Cc1c[nH]c2ccccc12)C(=O)N[C@@H](Cc1c[nH]c2ccccc12)C(=O)N[C@@H](Cc1c[nH]c2ccccc12)C(=O)N[C@@H](CCCNC(=N)N)C(=O)N[C@@H](Cc1c[nH]c2ccccc12)C(=O)N[C@@H](CCCNC(=N)N)C(=O)N[C@@H](Cc1c[nH]c2ccccc12)C(N)=O,Candida albicans,broth microdilution,"SP3903, RPMI 1640-MOPS","48 h, 30 °C",,MIC,4 µM
CC[C@H](C)[C@H](NC(=O)[C@H](C)NC(=O)[C@H](CCCCN)NC(=O)[C@H](CC(C)C)NC(=O)[C@H](C)NC(=O)[C@@H](NC(=O)[C@H](Cc1c[nH]cn1)NC(=O)[C@H](CC(C)C)NC(=O)[C@@H](NC(=O)[C@@H](NC(=O)[C@H](CCCCN)NC(=O)[C@H](C)NC(=O)[C@H](C)NC(=O)[C@H](CO)NC(=O)[C@H](CCCCN)NC(=O)[C@H](Cc1ccccc1)NC(=O)[C@@H](NC(=O)[C@H](CCCCN)NC(=O)[C@H](CC(C)C)NC(=O)[C@H](Cc1ccccc1)NC(=O)[C@H](CO)NC(=O)[C@H](CCCCN)NC(=O)[C@H](Cc1c[nH]c2ccccc12)NC(=O)[C@H](CCCCN)NC(C)=O)[C@@H](C)O)[C@@H](C)O)C(C)C)[C@@H](C)O)C(=O)N[C@@H](CO)C(=O)N[C@@H](CO)C(N)=O,Klebsiella pneumoniae,,ATCC 1706,,,MBC range,16 µg/mL
CC(C)(C)n1nnnc1C(c1ccc([N+](=O)[O-])cc1)N1CCCc2ccccc21 (centres unmarked),Schistosoma mansoni,microscopic viability scoring,newly transformed schistosomula,"10 µM, 72 h, prescreen",,viability reduction,0%
Cc1c2c(nn1C)CSCc1cc(n(C)n1)CSc1cc(c3ccccc3c1)OCCCc1c(C(=O)O)n(C)c3c-2c(Cl)ccc13,Staphylococcus aureus,"label-free quantitative proteomics, measured: SAOUHSC_00435 protein",SA113,concentration not given,relative to: untreated control,log2 fold change,4.45
CC(=O)O[C@H]1C[C@]2(O)[C@@H]3CC[C@@H]4C[C@@H](O)CC[C@]4(C)[C@H]3CC[C@]2(C)[C@H]1c1ccc(=O)oc1,Bovine alphaherpesvirus 1,viral replication,MDBK,,,IC50,0.18 µM
N=C(N)NCCC[C@H](NC(=O)CN)C(=O)N[C@@H](Cc1c[nH]c2ccccc12)C(=O)N[C@@H](CCCNC(=N)N)C(=O)N[C@@H](Cc1c[nH]c2ccccc12)C(=O)N[C@@H](Cc1c[nH]c2ccccc12)C(=O)N[C@@H](Cc1c[nH]c2ccccc12)C(=O)N[C@@H](CCCNC(=N)N)C(=O)N[C@@H](Cc1c[nH]c2ccccc12)C(=O)N[C@@H](CCCNC(=N)N)C(=O)N[C@@H](Cc1ccccc1)C(N)=O,Candida albicans,broth microdilution,"CGMCC 2.209, RPMI 1640-MOPS","48 h, 30 °C, with: ZnCl2 8 µM",,MIC,8 µM
CCOC(=O)C1=C(CN2CCOCC2)NC(c2nccs2)=NC1c1ccc(F)cc1Br (centres unmarked),Hepatitis B virus,measured: HBV pgRNA,chronic HBV infection patients,"oral, 120 mg/day, 28 days, with: ritonavir 100 mg/day",relative to: baseline,change in serum pgRNA,-0.75 log10 copies/mL
CCOC(=O)CCCn1c(SCCO)nc2ccccc21,Schistosoma mansoni,microscopic viability scoring,newly transformed schistosomula,"10 µM, 72 h, prescreen",,viability reduction,15.6%
CN[C@H](CC(C)C)C(=O)N[C@H]1C(=O)N[C@@H](CC(N)=O)C(=O)N[C@H]2C(=O)N[C@H]3C(=O)N[C@H](C(=O)N[C@H](C(=O)O)c4cc(O)cc(O)c4-c4cc3ccc4O)[C@H](O)c3ccc(c(Cl)c3)Oc3cc2cc(c3O[C@@H]2O[C@H](CO)[C@@H](O)[C@H](O)[C@H]2O[C@H]2C[C@](C)(N)[C@H](O)[C@H](C)O2)Oc2ccc(cc2Cl)[C@H]1O,Staphylococcus aureus,,"CAAS-2019-CAAS-2019-02 clinical drug-resistant isolate, 25% plasma",,,MBC,4 µg/mL
CS(=O)(=O)CCCn1c(Cn2c(=O)n(CC(F)(F)F)c3ccncc32)cc2cc(Cl)ccc21,respiratory syncytial virus,RT-qPCR,"hospitalized infants 1-24 months, nasal swab","oral, 2, 1.5 or 1 mg/kg daily, day 28, low dose by age cohort",relative to: placebo,LS mean difference vs placebo,0 log10 copies/mL
CCCCCCCC(C)(C)c1cc(O)c2cc(Cc3ccccc3O)c(=O)oc2c1,Schistosoma mansoni,microscopic viability scoring,newly transformed schistosomula,"10 µM, 72 h, prescreen",,viability reduction,100%
N#C[C@@]1(c2ccc3c(N)ncnn23)O[C@H](CO)[C@@H](O)[C@H]1O,human coronavirus 229E,viral replication,MRC-5,72 h,,EC50,0.76 µM
Nc1nc2c(ncn2COCCO)c(=O)[nH]1,Herpes simplex virus 2,"viral replication, RT-qPCR","BEAS-2B, compound-resistant",,,IC50,95.4 ± 3.75 µM
O=[N+]([O-])c1ccc(NCCSSc2ccccn2)c2nonc12,Schistosoma mansoni,microscopic viability scoring,newly transformed schistosomula,"10 µM, 72 h, prescreen",,viability reduction,17.3%
COC(=O)N[C@H](C(=O)N1CCC[C@H]1c1ncc(-c2ccc(-c3ccc(-c4cnc([C@@H]5CCCN5C(=O)[C@@H](NC(=O)OC)C(C)C)[nH]4)cc3)cc2)[nH]1)C(C)C,Hepatitis C virus,,"replicon cells, genotype 1a","75% effect level, with: NS3 inhibitor, ratio 2.5:1",,combination index,1.1
COc1ccccc1Cc1cc2c(C(C)C)ccc(C)c2oc1=O,Schistosoma mansoni,microscopic viability scoring,newly transformed schistosomula,"10 µM, 72 h, prescreen",,viability reduction,10.7%
CCc1cccc(C)c1N(C(=O)CCl)[C@@H](C)COC,Lolium multiflorum,,,2.1 µg/mL,,leaf development,0%
Cn1c(=O)ccc2ccc(F)c(CCNC[C@H]3CN(c4cnc5c(n4)NC(=O)CO5)C(=O)O3)c21,Achromobacter spp.,,,,,MIC90,0.12 µg/mL
CC(C)C[C@H](NC(=O)[C@H](CCN)NC(=O)[C@H](CCN)NC(=O)[C@@H](Cc1ccccc1)NC(=O)[C@H](CC(C)C)NC(=O)[C@H](CCN)NC(=O)[C@H](CCN)NC(=O)[C@@H](CCN)NC(=O)[C@@H](N)CSCCOC(=O)c1ccc(C(C)(C)C)cc1)C(N)=O,Acinetobacter calcoaceticus,BHI agar spot plating,,"24 h, 37 °C",,MBC,32 µM
COc1cnc(OC)n2nc(NS(=O)(=O)c3c(OCC(F)F)cccc3C(F)(F)F)nc12,Arabidopsis thaliana,,"Col-0, seed germination, dark","50 µg/mL, 7 days, 22 °C",,stem length inhibition,100%
CCN(CC)c1ccc2cc(N)c(=O)oc2c1,Schistosoma mansoni,microscopic viability scoring,newly transformed schistosomula,"10 µM, 72 h, prescreen",,viability reduction,6.3%
[O-][N+]1=C(c2ccc(Cl)cc2)C2=NCCN2c2ccccc21,Fusobacterium nucleatum,,,,,MIC90,0.125 µg/mL
